Published values pooled from the literature.
Parts stem from different laboratories: compare values within a part only.

Set 1 — method: RNAcompete; molecule type: RNA; sample: in vitro; concentration: 20 nM; notes: 7-mer, probes averaged, single round; relative to: mean of 7-mers; direction: higher = stronger binding; measurement: 7-mer Z-score
Target: PABPC1L2, full length, GST fusion (mouse, UniProt A0ABA7IW68)
Residues (chain): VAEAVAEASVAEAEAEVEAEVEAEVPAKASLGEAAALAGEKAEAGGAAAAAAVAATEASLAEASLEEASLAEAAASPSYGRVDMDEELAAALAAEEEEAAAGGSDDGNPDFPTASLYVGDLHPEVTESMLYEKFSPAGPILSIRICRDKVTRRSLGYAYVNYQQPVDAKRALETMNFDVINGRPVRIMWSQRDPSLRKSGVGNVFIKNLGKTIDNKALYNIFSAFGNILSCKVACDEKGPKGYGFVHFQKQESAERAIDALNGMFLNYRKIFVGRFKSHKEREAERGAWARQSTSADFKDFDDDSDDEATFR
UGGCGAA: 0.0732
UGGAUCC: 0.00436
CUCAUCG: -0.315
AACCAUU: -0.148
CAGUUAC: -0.222
ACUGGCG: 0.153
GCAUAUA: 0.00254
GUUGCGA: -0.103
GCGGGCG: 0.213
UAUUGCA: -0.173
GGCUGCU: -0.101
UUUGGAC: -0.179
CAGAGAG: 0.0279
UCCCAGA: -0.202
UCGUAAA: 0.247
GAUUUAC: 0.00979
UUCCCGG: -0.393

Set 2 — method: aptamer microarray, sandwich; molecule type: DNA with 2'F-ANA; sample: in vitro; concentration: 200 nM; together with: Cy3 exosite-II aptamer, 400 nM; direction: higher = stronger binding; measurement: mean fluorescence intensity; sequence: GGTTGGTGTGGTTGG
Target: Prothrombin, mature alpha-thrombin (F2, Homo sapiens, UniProt P00734)
Notes: whole 15-mer aptamer, many near background
2'F-ANA at 3 4 7 8 9 10 11 12 14: 348 a.u.
2'F-ANA at 5 6 7 8 11 13 14: 46.6 a.u.
2'F-ANA at 1 3 4 5 7 14 15: 45.1 a.u.
2'F-ANA at 1 4 6 7 9 10 11 12 13: 49.9 a.u.
2'F-ANA at 5 6 7 8 9 10 12 13 14 15: 47.3 a.u.
2'F-ANA at 4 5 6 7 8 9 10: 46.8 a.u.
2'F-ANA at 1 2 6 7 11 12 13 15: 191 a.u.
2'F-ANA at 4 5 6 9 15: 64.2 a.u.
2'F-ANA at 4 5 6 7 12 13: 92.6 a.u.
2'F-ANA at 3 4 7 8 9 12 15: 1040 a.u.
2'F-ANA at 1 2 3 4 9 13 15: 98.8 a.u.
2'F-ANA at 1 3 4 6 7 9 14 15: 60.5 a.u.
2'F-ANA at 1 3 5 7 10 11 14: 43.7 a.u.
2'F-ANA at 1 3 7 9 11: 309 a.u.
2'F-ANA at 1 2 3 4 5 6 8 9 10 13: 46.8 a.u.
2'F-ANA at 1 2 4 5 6 9 10 12 15: 48.9 a.u.
2'F-ANA at 1 2 4 9 10 13: 61.5 a.u.
2'F-ANA at 1 2 5 6 8 9 15: 77 a.u.
2'F-ANA at 2 3 5 6 7 9 10 11 12 13 14: 60.3 a.u.

Set 3 — method: RNA Bind-n-Seq; molecule type: RNA; sample: in vitro; concentration: 20 nM; notes: 6-mer, flanks averaged, single round; together with: 150 mM LiCl; relative to: input library; direction: higher = stronger binding; measurement: 6-mer enrichment (R)
Target: TAR DNA-binding protein 43, full length, His tag (TARDBP, Homo sapiens, UniProt Q13148, residues 1-414)
GUCUAG: 0.927
CAGGGG: 1.18
ACAAAC: 0.81
AUCGCG: 0.929
GUCUUA: 0.928
AGAUCC: 0.843
CGACCA: 0.814
GUCAAC: 0.824
CAAGAC: 0.776
AAUGAC: 0.829
CUGACG: 0.859
AGCAUA: 0.86
UACAGA: 0.813
ACCGCG: 0.888
AUGUAU: 1.22
AGUGGU: 1.28
CCGGUU: 0.924
AAAGUA: 0.912

Set 4 — method: protein-binding microarray; molecule type: double-stranded DNA, one strand shown; sample: in vitro; concentration: not given; direction: higher = stronger binding; measurement: E-score
Target: Protein max, full length (MAX, Homo sapiens, UniProt P61244-2, residues 1-151)
Notes: k-mer, scored over probes, only values ≥0.25
ACGCATTG: 0.304
GGGCACGA: 0.284
CGTGTCGA: 0.29
CATGATAC: 0.284
GCATGCCA: 0.374
AACGTGTA: 0.381
CATGACCA: 0.332
ATGCTGCA: 0.315
ATGTGAGG: 0.287
AAATCATG: 0.293
AGTCACGC: 0.436
AGGGCATG: 0.327
CGGTAGCA: 0.32
GCAGGTGA: 0.286
ACAATGCG: 0.317
CAACGAGG: 0.291
CCCGCCGC: 0.268

Set 5 — method: protein binding microarray; molecule type: double-stranded DNA, one strand shown; sample: in vitro; concentration: not given; relative to: not given; direction: higher = stronger binding; measurement: E-score
Target: Histone acetyltransferase KAT6A, winged helix 2, GST fusion (KAT6A, Homo sapiens, UniProt Q92794, residues 85-181)
Notes: 8-mer, flanks averaged, mean of 2 arrays, mostly near background
Target sequence (chain): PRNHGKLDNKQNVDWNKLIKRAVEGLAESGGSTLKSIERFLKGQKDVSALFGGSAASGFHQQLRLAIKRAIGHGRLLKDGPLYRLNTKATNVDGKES
CCATGGTA: -0.139
CCATGTGC: -0.0248
GATTAAAA: 0.215
TCCCCACA: -0.126
GATAATGC: -0.00353
ACAGCACA: 0.113
GTGTGCTA: 0.0359
AGTCAGGC: 0.00068
AGTAACAC: -0.0121
CCCCTTCG: 0.115
ATAATTGG: -0.0409
ATCATTAA: 0.123
CCGTATGC: 0.118
GCCGTCCC: 0.113
TGAAGCAA: 0.0379
GGTCAACA: 0.0695
TATGAAGA: 0.095
GCGCATAA: -0.139
GTACAATA: 0.0142

Set 6 — method: RNA Bind-n-Seq; molecule type: RNA; sample: in vitro; concentration: 365 nM; relative to: no-protein control; direction: higher = stronger binding; measurement: RBNS enrichment (R)
Target: RNA binding protein fox-1 homolog 2, RRM domain, GST-SBP tag (RBFOX2, Homo sapiens, UniProt O43251-10, residues 100-194)
Notes: natural RNA segment, single round, ends assumed
All sequences stand within: GGGAGUUCUACAGUCCGACGAUC … UGGAAUUCUCGGGUGCCAA
Construct (chain): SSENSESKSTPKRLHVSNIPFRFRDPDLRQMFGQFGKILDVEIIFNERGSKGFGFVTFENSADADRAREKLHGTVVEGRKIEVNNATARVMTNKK
GACAAUGGGGACAUUGUUGGUAGCUGUUCGGUAGAUGCUCUUUGCUAUUUAUAAGUGACUUUAAACCUUCUCUUGGCUGUUAAGAAAUGUGUUCUAGAUUUAGCUAUUUA: 0.708
UGCUGUGAUACUUCAUUUUUAAAUUGUGAACUUUGUACAAACUUUGUCAUGCUGAUGUGAACACAUCUUACUCUGAAUAAAAAGGUGUUGCCACGUUUGUAGCACGAAGG: 0.493
GUGUGUACACAUACACAUUUGAGAUUGUAUGAGAACAUAUAAUCCAUAUGAUAUGUUGUACAUUUUAUGGAAAUGUAAUAGAAUCUCACACAUUAUUUUAUAGAAAUAGA: 0.884
UAUUCCGUAUCAGAUUGCAAAGACGGAAUGUUACUAUUUUAUCAGCAAGGUAUUAAAAUGCAUUUAUAAAUUCUUCUUGGCUUCAUUCAUGAAUAAACGUGUUAGCAAUU: 1.07
UCAGAUACAUGAACAUGUCUUACAUGGGUUGCUGUAUUUAGAAUUAUAAACAUUUUUCAUUAUUGGAAAGUGUAACGGGGACCUUCUGCAUACCUGUUUAGAACCAAAAC: 0.228
CUACUGCUUCUGCUUCUUCUUCUCUGGACUGGUGGUAUAGAUAUAGCCACCCUUUGCCCAAACCCUGGUAGCUCGGGGAAGCUUGGCUUAAGGCUGCACGCCUCCAAUCC: 0.284
UCUGUCUCCGUGCUCUCCUGCCUCCACCGCCUUGGUUUUGCUUCCUGCUGGAGGCAGGGCACCUGCUGCGACCCAGAUUCUUCUGCAGGAUGUGUCUGUCUUUGUCACGG: 0.451
UACCAUUACAACUGUUCUUUGCUGGACGGCACCCAGCUGUUCACCUCGCAUGACUACGGGGCCCCCCAGGAGGCGACUCUCGGGGCCAACAAGGUGAUCGAAGGCCUGGA: 1.42

Other studies, line by line
PPVKRRLDLETDH
score relative, wild type, peptide (human cyclin B1; cyclin docking binding, deep mutational scanning; peptide, yeast cyclin B1-Cln2 system; direction not given): 0

For quick reference, copied from above (set 4):
CGTGTCGA: 0.29
GGGCACGA: 0.284
CATGATAC: 0.284
ATGTGAGG: 0.287
AGGGCATG: 0.327
ACGCATTG: 0.304
AACGTGTA: 0.381
ATGCTGCA: 0.315
ACAATGCG: 0.317
GCATGCCA: 0.374
CCCGCCGC: 0.268
CAACGAGG: 0.291
GCAGGTGA: 0.286
AAATCATG: 0.293
